Results gathered from unrelated publications.
Compare with care: the assays were run in different laboratories. Several values in a cell are separate wells, animals, samples, runs or records. Numbers after ± are the reported error. In brackets after ≈: the same amount, converted by molar mass.

For `C[C@@H]1O[C@@H](OC[C@H]2O[C@@H](Oc3c(-c4ccc(O)c(O)c4)oc4cc(O)cc(O)c4c3=O)[C@H](O)[C@@H](O)[C@@H]2O)[C@H](O)[C@H](O)[C@H]1O`, “initial rate of glycolytic pH drop” read 0.031 pH units/min (Streptococcus sobrinus; MIC, first 15 min, added: glucose 1%).
For `CC1(C)S[C@@H]2[C@H](NC(=O)[C@H](N)c3ccccc3)C(=O)N2[C@H]1C(=O)O`, the MIC was greater than 16 µg/mL (Pseudomonas aeruginosa; clinical isolate RKI-No_584/15).
For `COC(=O)[C@@H](NCc1cc2ccccc2nc1OCc1ccccc1)C(C)C`, the growth was 96.1% (Pseudomonas aeruginosa; 16 µg/mL, added: pentamidine 100 µM; reference: control).
`CC(C)n1ncc2c(C(=O)NCC3(C)CNC3)cc(C3CC3)nc21` has a plaque area of 97.8% and 94.8% (enterovirus A71; Tainan/4643/1998; 0.03 µM).
For `[H]/N=C(\N/C(=N/[H])NCCCCCCNC(=N)NC(=N)Nc1ccc(Cl)cc1)Nc1ccc(Cl)cc1`, “zone of inhibition” read 19.3 ± 1.2 mm (Streptococcus sobrinus; BHI agar; 500 µg/disc).
`C=CC(=O)ON=C1C=CC(=C(C#N)c2ccccc2)C=C1` has an MFC of 32 µg/mL (≈ 116 µM) (Pichia norvegensis; broth dilution; ATCC 96139; 48 h, 37 °C).
`CC1(C)S[C@@H]2[C@H](NC(=O)[C@H](N)c3ccccc3)C(=O)N2[C@H]1C(=O)O` gave a DNA length of 2.34 µm and 2.27 µm and 2.3 µm (Bacillus subtilis; bacterial cytological profiling; ATCC 6633).
With `CC[C@H](C)[C@H](N)C(=O)OC[C@H]1O[C@@](C#N)(c2ccc3c(N)ncnn23)[C@H](O)[C@@H]1O` the EC50 was 1460 ± 219 nM (human respiratory syncytial virus; viral replication, viral protein ELISA; HEp-2, A2; 5 days).
For `[N-]=[N+]=N[C@]1(CO)O[C@@H](n2ccc(N)nc2=O)[C@@H](F)[C@@H]1O`, viral replication read “no inhibition” (human respiratory syncytial virus; A2 RSV-GFP; concentration not given).
With `COC(=O)[C@H](Cc1c[nH]c2ccccc12)NCc1cc2ccccc2nc1SC` the growth was 93.7% (Pseudomonas aeruginosa; 8 µg/mL, added: pentamidine 50 µM; reference: control).
The EC50 of `CC(C)C(=O)OC[C@H]1O[C@@H](n2ccc(NO)nc2=O)[C@H](O)[C@@H]1O` is reported as greater than 10000 nM (human respiratory syncytial virus; viral replication, viral protein ELISA; HEp-2, A2; 5 days).
For `N#CC(=C1C=CC(=NOC(=O)OCc2ccccc2)C=C1)c1ccccc1`, the MFC was 128 µg/mL (≈ 359 µM) (Pichia norvegensis; broth dilution; ATCC 96139; 48 h, 37 °C).
With `CCc1nn(C)c2nc(-c3ccc(C(=O)O)cc3)nc(NCc3ccc(F)cc3)c12` the parasite number was 74.8% and 92.2% and 97% and 87.6% (Cryptosporidium parvum; HCT-8; 3 x EC90, 3 h; reference: DMSO control).
With `CCCCCCCCC(=O)OC[C@H]1O[C@@](C#N)(c2ccc3c(N)ncnn23)[C@H](O)[C@@H]1O` the EC50 was 490 ± 57 nM (human respiratory syncytial virus; viral replication, viral protein ELISA; HEp-2, A2; 5 days).
The MBC of `CC(=O)NC[C@H]1CN(c2ccc(N3CCOCC3)c(F)c2)C(=O)O1` is reported as 64 µM (≈ 21.6 µg/mL) (Staphylococcus aureus; broth microdilution; vancomycin-resistant VRS4).
With `CO[C@H]1/C=C/O[C@@]2(C)Oc3c(C)c(O)c4c(O)c(c(/C=N/N5CCN(C)CC5)c(O)c4c3C2=O)NC(=O)/C(C)=C\C=C\[C@H](C)[C@H](O)[C@@H](C)[C@@H](O)[C@@H](C)[C@H](OC(C)=O)[C@@H]1C` the DNA length was 1.79 µm and 1.9 µm and 1.74 µm (Bacillus subtilis; bacterial cytological profiling; ATCC 6633).
The FICI of `N=C(N)c1ccc(OCc2ccc(Br)cc2COc2ccc(C(=N)N)cc2)cc1` is reported as no more than 0.047 (Escherichia coli; checkerboard; mcr-3 polymyxin-resistant; unit not given, added: rifampicin; lower = stronger synergy).
`Cn1cc(C(=O)C(=O)NCCc2c[nH]c3ccccc23)c2ccccc21` has a killing of 80 to 95% (Pseudomonas putida, Escherichia coli; bactericidal activity; 3 x MIC, 2 h).
`CC(=O)NC[C@H]1CN(c2ccc(N3CCOCC3)c(F)c2)C(=O)O1` has an MIC50 of 1 µg/mL (≈ 2.96 µM) (Staphylococcus epidermidis; methicillin-resistant, 10 isolates; serum 25%).
`NC(=O)C[C@H](N)C(=O)O` has an EC50 of 950 nM (Bacillus subtilis; chemotaxis pathway, FRET; 168).
Under “perivascular cuffing score”, `CCn1c(=O)c(-c2cc[nH]n2)cc2c(C)nc(N)nc21` is recorded as 0 (enterovirus A71; suckling mouse, EV71-infected, brain; 0.25 mg/kg; direction not given).
The cell area of `O=C(O)c1cn(C2CC2)c2cc(N3CCNCC3)c(F)cc2c1=O` is reported as 4.51 µm² and 4.25 µm² and 4.81 µm² (Bacillus subtilis; bacterial cytological profiling; ATCC 6633; concentration not given).
`N=C(N)c1ccc(OCc2cc(COc3ccc(C(=N)N)cc3)cc(-c3ccccc3)c2)cc1`: “MIC of compound in combination” 3.13 µg/mL (Escherichia coli; checkerboard; mcr-1 polymyxin-resistant; concentration not given, 20 h, added: rifampicin).
`Oc1cc(O)c2c(c1)O[C@H](c1cc(O)c(O)c(O)c1)[C@@H](O)C2` — result for “initial rate of glycolytic pH drop”: 0.041 pH units/min (Streptococcus sobrinus; MIC, first 15 min, added: glucose 1%).
With `Cc1nc2[nH]c(=O)n(O)c(=O)c2s1` the growth inhibition was 0% (Amaranthus retroflexus; 750 g/ha, 21 days, pre-emergence, glasshouse pot).
With `Nc1nc(-c2ccccc2)nc2[nH]nc(Nc3ccc(C(F)(F)F)cc3)c12` the clinical score was 1.5 (coxsackievirus B3; 31-1-93, NMRI mice, CVB3 chronic myocarditis; oral, 100 mg/kg twice daily, day 11, dosed days 3 to 10, score scale 0 to 7; direction not given).
For `O=C(O[C@@H]1O[C@@H]2COC(=O)c3cc(O)c(O)c(O)c3-c3c(cc(O)c(O)c3O)C(=O)O[C@H]([C@H]1O)[C@@H]2O)c1cc(O)c(O)c(O)c1`, “inhibition zone diameter” read 15.5 ± 1.5 mm (Streptococcus sobrinus; 500 µg/disc).
`CN(C)[C@@H]1C(O)=C(C(N)=O)C(=O)[C@@]2(O)C(O)=C3C(=O)c4c(O)cccc4[C@@](C)(O)[C@H]3C[C@@H]12` gave a DNA width of 0.69 µm and 0.68 µm and 0.65 µm (Bacillus subtilis; bacterial cytological profiling; ATCC 6633).
`O=C1OC[C@H]2OC(O)[C@H](O)[C@@H](O)[C@@H]2OC(=O)c2cc(O)c(O)c(O)c2-c2c(O)c(O)c3oc(=O)c4c(c(O)c(O)c5oc(=O)c2c3c54)-c2c1cc(O)c(O)c2O` (mixture of isomers) — result for “initial rate of glycolytic pH drop”: 0.033 pH units/min (Streptococcus sobrinus; MIC, first 15 min, added: glucose 1%).
`COC[C@H]1O[C@@H]2O[C@H]3[C@H](OC)[C@@H](OC)[C@@H](O[C@H]4[C@H](OC)[C@@H](OC)[C@@H](O[C@H]5[C@H](OC)[C@@H](OC)[C@@H](O[C@H]6[C@H](OC)[C@@H](OC)[C@@H](O[C@H]7[C@H](OC)[C@@H](OC)[C@@H](O[C@H]8[C@H](OC)[C@@H](OC)[C@@H](O[C@H]1[C@H](OC)[C@H]2OC)O[C@@H]8COC)O[C@@H]7COC)O[C@@H]6COC)O[C@@H]5COC)O[C@@H]4COC)O[C@@H]3COC` gave an inhibition of -4 ± 3% (Escherichia coli; LuxR reporter, antagonist; DH5α sensor strain; 20 µM, added: OHHL 200 nM).
The inhibition of `Cc1cc(OC(C)C)ccc1C(=O)C(C)(C)NC(=O)c1sccc1C` is reported as 100% (Botrytis cinerea; mycelial growth; B05.10; 1 µg/mL).
For `Cc1cc(Nc2ccc(S(F)(F)(F)(F)F)cc2)n2nc(C(C)(F)F)nc2n1`, “parasite clearance half-life” read 4.7 h (Plasmodium falciparum; microscopy; human malaria patients; 250 mg, median).
With `O=c1cc(-c2ccc(O)c(-c3c(O)cc(O)c4c(=O)cc(-c5ccc(O)cc5)oc34)c2)oc2cc(O)cc(O)c12` the EC50 was greater than 50000 nM (hepatitis C virus; viral replication; Huh-Luc/neo-ET replicon cells).
With `O=c1[nH]c2ncsc2c(=O)n1O` the growth inhibition was 100% (Amaranthus retroflexus; 1500 g/ha, 21 days, post-emergence, glasshouse pot).
The MIC of `CNC(C)C1CCC(N)C(OC2C(N)CC(N)C(OC3OCC(C)(O)C(NC)C3O)C2O)O1` (centres unmarked) is reported as 2 µg/mL (≈ 4.19 µM) (Stenotrophomonas maltophilia; broth microdilution; clinical isolate RKI-No 136/09).
The DNA area of `COc1cccc2c1C(=O)c1c(O)c3c(c(O)c1C2=O)C[C@@](O)(C(=O)CO)C[C@@H]3O[C@H]1C[C@H](N)[C@H](O)[C@H](C)O1` is reported as 2.05 µm² and 1.86 µm² and 1.59 µm² (Bacillus subtilis; bacterial cytological profiling; ATCC 6633).
Under “time to complete clearance”, `Cc1ccc(N(c2ccc(NC(=O)CN(C)c3ccccc3N3CCCC3=O)cc2)C(C)C)cc1` is recorded as 96 h (Plasmodium falciparum; 3D7 asexual blood stage; 10 x EC50).
For `Cc1ccc(S(=O)(=O)Nn2c(N)c(C#N)cc(-c3nc4ccccc4s3)c2=O)cc1`, “viral load reduction” read 10% (hepatitis C virus; qRT-PCR; Huh7.5, genotype 4; concentration not given).

For quick reference, copied from above:
With `CCc1nn(C)c2nc(-c3ccc(C(=O)O)cc3)nc(NCc3ccc(F)cc3)c12` the parasite number was 74.8% and 92.2% and 97% and 87.6% (Cryptosporidium parvum; HCT-8; 3 x EC90, 3 h; reference: DMSO control).
With `CCCCCCCCC(=O)OC[C@H]1O[C@@](C#N)(c2ccc3c(N)ncnn23)[C@H](O)[C@@H]1O` the EC50 was 490 ± 57 nM (human respiratory syncytial virus; viral replication, viral protein ELISA; HEp-2, A2; 5 days).
The MBC of `CC(=O)NC[C@H]1CN(c2ccc(N3CCOCC3)c(F)c2)C(=O)O1` is reported as 64 µM (≈ 21.6 µg/mL) (Staphylococcus aureus; broth microdilution; vancomycin-resistant VRS4).
With `CO[C@H]1/C=C/O[C@@]2(C)Oc3c(C)c(O)c4c(O)c(c(/C=N/N5CCN(C)CC5)c(O)c4c3C2=O)NC(=O)/C(C)=C\C=C\[C@H](C)[C@H](O)[C@@H](C)[C@@H](O)[C@@H](C)[C@H](OC(C)=O)[C@@H]1C` the DNA length was 1.79 µm and 1.9 µm and 1.74 µm (Bacillus subtilis; bacterial cytological profiling; ATCC 6633).
